Measurements of several laboratories.
A part holds a random share of what one study measured. Values joined by “and” are separate records of one study, mostly repeats; a detail may differ.
Sequence of UniProt Q9H4B4 (whole entry, looked up): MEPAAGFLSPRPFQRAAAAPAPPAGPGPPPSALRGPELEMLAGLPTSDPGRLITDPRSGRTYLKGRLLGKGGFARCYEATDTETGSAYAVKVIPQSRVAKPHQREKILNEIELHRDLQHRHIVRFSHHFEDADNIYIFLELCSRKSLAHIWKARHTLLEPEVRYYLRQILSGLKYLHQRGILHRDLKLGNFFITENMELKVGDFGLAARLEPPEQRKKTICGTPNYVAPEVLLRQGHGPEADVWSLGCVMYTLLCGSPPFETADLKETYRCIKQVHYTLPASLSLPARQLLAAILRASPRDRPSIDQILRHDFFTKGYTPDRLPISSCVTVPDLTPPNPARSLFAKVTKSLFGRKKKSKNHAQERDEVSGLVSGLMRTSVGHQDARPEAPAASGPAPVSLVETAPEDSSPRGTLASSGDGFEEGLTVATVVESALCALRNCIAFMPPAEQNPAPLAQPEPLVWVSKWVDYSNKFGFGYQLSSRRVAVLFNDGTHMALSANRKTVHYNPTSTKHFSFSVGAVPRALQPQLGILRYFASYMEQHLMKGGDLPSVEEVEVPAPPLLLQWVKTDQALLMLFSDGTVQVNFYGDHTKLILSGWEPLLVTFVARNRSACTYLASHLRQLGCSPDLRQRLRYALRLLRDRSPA
Sequence of UniProt Q9HAZ1 (whole entry, looked up): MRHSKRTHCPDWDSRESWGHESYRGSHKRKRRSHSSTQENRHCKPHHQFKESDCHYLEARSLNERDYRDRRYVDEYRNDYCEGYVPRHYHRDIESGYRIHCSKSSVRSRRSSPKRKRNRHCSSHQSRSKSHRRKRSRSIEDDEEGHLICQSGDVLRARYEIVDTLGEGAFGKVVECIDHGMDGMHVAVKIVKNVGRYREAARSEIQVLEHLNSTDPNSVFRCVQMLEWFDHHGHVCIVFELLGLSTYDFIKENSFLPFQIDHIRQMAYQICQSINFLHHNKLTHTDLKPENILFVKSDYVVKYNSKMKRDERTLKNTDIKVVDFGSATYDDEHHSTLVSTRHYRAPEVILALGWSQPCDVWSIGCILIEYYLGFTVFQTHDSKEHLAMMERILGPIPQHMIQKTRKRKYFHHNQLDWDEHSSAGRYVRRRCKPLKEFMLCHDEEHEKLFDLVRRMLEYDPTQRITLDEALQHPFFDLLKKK
Sequence of UniProt Q13237 (whole entry, looked up): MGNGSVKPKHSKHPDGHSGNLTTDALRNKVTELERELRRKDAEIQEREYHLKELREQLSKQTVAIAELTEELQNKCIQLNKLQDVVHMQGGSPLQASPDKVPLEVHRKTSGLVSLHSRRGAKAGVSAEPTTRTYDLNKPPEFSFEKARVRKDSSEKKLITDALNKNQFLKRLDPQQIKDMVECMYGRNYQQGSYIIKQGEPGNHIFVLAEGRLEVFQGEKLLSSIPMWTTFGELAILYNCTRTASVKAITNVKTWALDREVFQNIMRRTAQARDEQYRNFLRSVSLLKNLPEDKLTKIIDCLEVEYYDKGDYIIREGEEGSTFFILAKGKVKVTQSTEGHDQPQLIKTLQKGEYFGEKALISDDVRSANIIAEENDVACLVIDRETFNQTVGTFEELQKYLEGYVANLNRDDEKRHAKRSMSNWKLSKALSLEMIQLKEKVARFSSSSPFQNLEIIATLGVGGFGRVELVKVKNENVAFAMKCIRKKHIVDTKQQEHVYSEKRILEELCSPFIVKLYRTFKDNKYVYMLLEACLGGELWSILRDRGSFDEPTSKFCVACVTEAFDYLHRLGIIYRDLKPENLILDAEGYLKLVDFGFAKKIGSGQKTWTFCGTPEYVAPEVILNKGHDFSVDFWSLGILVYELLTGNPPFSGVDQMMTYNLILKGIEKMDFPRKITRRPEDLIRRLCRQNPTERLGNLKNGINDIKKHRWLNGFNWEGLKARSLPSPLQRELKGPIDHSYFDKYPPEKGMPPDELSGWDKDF
Sequence of UniProt Q02750 (whole entry, looked up): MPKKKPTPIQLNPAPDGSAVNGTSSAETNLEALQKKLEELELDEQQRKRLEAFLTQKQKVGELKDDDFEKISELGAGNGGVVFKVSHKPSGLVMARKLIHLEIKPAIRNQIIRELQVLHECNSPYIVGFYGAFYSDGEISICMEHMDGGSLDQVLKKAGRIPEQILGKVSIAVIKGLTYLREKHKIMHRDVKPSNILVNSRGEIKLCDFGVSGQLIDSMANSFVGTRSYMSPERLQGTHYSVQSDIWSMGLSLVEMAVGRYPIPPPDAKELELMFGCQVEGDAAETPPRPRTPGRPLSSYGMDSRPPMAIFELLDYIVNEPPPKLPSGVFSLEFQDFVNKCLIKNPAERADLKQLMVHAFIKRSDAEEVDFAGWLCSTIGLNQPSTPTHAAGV

Set 1
Compound: CN1CCN(C(=O)c2ccc(NC(=O)Nc3ccc(N(C)c4ccnc(Nc5ccc(CS(C)(=O)=O)cc5)n4)cc3)cc2)CC1
| target | read-out | technique | tested at | remaining binding [%] |
| --- | --- | --- | --- | --- |
| WNK2 (Homo sapiens, UniProt Q9Y3S1) | binding |  | 1 µM | 67 |
| PIP4K2C (Homo sapiens, UniProt Q8TBX8) | binding |  | 1 µM | 0.9 |
| ABL2 (Homo sapiens, UniProt P42684) | binding | competition with immobilised ligand | 1 µM | 44 |
| FYN (Homo sapiens, UniProt P06241) | binding | competition with immobilised ligand | 1 µM | 98 |
| Ribosomal protein S6 kinase alpha-4, N-terminal kinase domain (RPS6KA4, Homo sapiens, UniProt O75676) | binding | competition with immobilised ligand | 1 µM | 82 |
| MERTK (Homo sapiens, UniProt Q12866) | binding | competition with immobilised ligand | 1 µM | 56 |
| CDK19 (Homo sapiens, UniProt Q9BWU1) |  | DiscoverX cell-free binding | 1000 nM | 100 |
| BMPR1B (Homo sapiens, UniProt O00238) | binding | competition with immobilised ligand | 1 µM | 1.1 |
| Aurora kinase C (AURKC, Homo sapiens, UniProt Q9UQB9) | binding | competition with immobilised ligand | 1 µM | 0.2 |

Set 2 — read-out: enzyme activity; action: inhibitor; tested at: 77 µM; relative to: untreated
Target: DNA polymerase theta, ATPase domain (POLQ, Homo sapiens, UniProt O75417)
Sequence of UniProt O75417 (whole entry, unmodified, looked up): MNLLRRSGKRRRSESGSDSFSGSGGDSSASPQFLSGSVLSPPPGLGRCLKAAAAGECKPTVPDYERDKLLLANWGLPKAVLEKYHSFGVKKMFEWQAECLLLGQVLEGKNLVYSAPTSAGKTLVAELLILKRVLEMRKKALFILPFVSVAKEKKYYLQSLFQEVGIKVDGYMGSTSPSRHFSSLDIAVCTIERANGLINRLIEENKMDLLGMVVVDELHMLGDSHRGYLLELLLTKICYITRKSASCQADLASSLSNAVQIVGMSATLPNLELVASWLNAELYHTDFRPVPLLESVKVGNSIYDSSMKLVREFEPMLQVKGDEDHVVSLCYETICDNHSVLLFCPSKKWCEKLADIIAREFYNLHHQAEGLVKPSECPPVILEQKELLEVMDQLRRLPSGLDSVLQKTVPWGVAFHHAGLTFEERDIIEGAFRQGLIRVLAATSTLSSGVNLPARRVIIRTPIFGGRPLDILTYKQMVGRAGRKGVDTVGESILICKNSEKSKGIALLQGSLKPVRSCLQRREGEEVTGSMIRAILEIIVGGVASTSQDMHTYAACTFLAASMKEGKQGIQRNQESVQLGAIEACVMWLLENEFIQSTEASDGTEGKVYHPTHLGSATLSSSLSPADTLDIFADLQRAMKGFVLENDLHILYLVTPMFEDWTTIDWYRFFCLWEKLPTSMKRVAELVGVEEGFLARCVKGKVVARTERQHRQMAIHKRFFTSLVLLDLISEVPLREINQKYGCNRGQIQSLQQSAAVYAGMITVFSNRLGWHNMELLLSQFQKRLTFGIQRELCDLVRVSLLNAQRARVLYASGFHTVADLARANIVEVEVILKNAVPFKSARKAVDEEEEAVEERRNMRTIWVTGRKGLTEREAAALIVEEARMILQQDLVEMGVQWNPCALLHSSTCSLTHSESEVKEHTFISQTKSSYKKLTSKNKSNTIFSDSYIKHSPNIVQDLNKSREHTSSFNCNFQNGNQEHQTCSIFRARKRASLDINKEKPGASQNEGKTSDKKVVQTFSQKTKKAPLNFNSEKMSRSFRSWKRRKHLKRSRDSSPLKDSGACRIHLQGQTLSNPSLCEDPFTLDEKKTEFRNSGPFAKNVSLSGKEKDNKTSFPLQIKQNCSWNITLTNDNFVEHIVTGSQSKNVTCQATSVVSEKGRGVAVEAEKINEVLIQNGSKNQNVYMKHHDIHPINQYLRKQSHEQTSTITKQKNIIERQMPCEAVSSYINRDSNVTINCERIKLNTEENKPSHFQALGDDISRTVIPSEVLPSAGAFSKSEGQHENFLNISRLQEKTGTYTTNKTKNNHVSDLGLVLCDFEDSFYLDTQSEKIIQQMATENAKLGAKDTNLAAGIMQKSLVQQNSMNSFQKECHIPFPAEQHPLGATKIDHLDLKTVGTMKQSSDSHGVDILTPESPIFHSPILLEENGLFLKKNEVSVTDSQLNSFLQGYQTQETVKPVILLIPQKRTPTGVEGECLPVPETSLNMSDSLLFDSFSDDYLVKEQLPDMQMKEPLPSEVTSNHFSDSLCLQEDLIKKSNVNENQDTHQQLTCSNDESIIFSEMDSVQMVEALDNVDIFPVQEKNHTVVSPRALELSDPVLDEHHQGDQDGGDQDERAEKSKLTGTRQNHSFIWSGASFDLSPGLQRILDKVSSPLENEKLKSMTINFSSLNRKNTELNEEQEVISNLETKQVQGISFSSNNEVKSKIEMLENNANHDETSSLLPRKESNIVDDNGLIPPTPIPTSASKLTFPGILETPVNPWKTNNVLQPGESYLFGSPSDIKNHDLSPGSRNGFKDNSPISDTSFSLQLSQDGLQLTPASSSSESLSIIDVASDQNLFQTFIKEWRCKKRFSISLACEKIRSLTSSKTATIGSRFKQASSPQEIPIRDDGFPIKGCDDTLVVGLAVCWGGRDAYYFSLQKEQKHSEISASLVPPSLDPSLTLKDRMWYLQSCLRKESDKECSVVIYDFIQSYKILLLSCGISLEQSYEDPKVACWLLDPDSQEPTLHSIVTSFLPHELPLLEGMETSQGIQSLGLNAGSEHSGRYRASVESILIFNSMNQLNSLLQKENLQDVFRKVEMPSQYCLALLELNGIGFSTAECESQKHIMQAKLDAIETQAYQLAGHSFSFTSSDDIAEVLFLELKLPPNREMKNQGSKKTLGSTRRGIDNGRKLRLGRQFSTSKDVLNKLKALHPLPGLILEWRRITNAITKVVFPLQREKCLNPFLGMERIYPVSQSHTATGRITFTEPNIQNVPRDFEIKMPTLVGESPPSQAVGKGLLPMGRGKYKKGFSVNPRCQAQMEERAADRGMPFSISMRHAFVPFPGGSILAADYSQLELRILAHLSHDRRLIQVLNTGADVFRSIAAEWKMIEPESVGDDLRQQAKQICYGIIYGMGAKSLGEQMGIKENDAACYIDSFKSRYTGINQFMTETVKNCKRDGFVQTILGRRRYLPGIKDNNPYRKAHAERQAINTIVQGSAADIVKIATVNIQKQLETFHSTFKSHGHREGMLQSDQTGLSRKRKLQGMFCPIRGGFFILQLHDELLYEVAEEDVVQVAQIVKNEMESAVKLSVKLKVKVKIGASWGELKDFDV
| Compound | remaining activity |
| --- | --- |
| CN1CCOC(c2ccccc2)c2ccccc2C1 (centres unmarked) | 100% |
| CC(C)(C=O)Cc1cc(C(C)(C)C)c(O)c(C(C)(C)C)c1 | 110% |
| Cn1cc(CNCC2CCN(c3ncc(C(=O)NO)cn3)CC2)c2ccccc21 | 97.9% |
| O=c1c(O)c(-c2ccc(O)cc2)oc2cc(O)cc(O)c12 | 89.6% and 102% |
| CN(C)CCN(Cc1ccc(Cl)cc1)c1ccccn1 | 103% |
| CCN(CC)CCOC(=O)c1cc(Cl)c(N)cc1OC | 97.5% |
| CC(=O)OCC[N+](C)(C)C | 103% |
| COC(=O)CCSCc1ccc(-c2onc(C)c2NC(=O)OC(C)c2ccccc2Cl)cc1 (centres unmarked) | 93.4% |
| O=C(O)CCNC(=O)c1ccccc1 | 102% |
| Cc1cccc(N(C)C(=S)Oc2ccc3ccccc3c2)c1 | 102% and 100% |
| CC1(C)O[C@@H]2C[C@H]3[C@@H]4C[C@H](F)C5=CC(=O)C=C[C@]5(C)[C@@]4(F)[C@@H](O)C[C@]3(C)[C@]2(C(=O)CO)O1 | 96.1% |

Set 3 — read-out: cell-free assay; technique: competition with immobilised ligand; tested at: 1 µM
SMILES: CN([C@@H]1CCc2c(CC(=O)O)c3ccccc3n2C1)S(=O)(=O)c1ccc(F)cc1
| target | remaining binding [%] |
| --- | --- |
| EGFR (Homo sapiens, UniProt P00533, L858R/T790M) | 100 |
| DSTYK (Homo sapiens, UniProt Q6XUX3) | 82 |
| Macrophage colony-stimulating factor 1 receptor, autoinhibited (CSF1R, Homo sapiens, UniProt P07333) | 100 |
| Tyrosine-protein kinase ABL1, phosphorylated (ABL1, Homo sapiens, UniProt P00519, Y253F) | 100 |
| NEK4 (Homo sapiens, UniProt P51957) | 100 |
| EPHA1 (Homo sapiens, UniProt P21709) | 100 |
| EGFR (Homo sapiens, UniProt P00533, del747-752/P753S) | 95 |
| Aurora kinase A (AURKA, Homo sapiens, UniProt O14965) | 100 |
| INSRR (Homo sapiens, UniProt P14616) | 100 |
| ALK (Homo sapiens, UniProt Q9UM73, C1156Y) | 98 |

Set 4 — Compound: O=C(CCCc1ccc(-c2ccccc2F)cc1)Nc1ccc(O)cc1; read-out: enzyme activity; action: inhibitor; tested at: 0.5 µM; relative to: control
| target | remaining activity [%] |
| --- | --- |
| MAP2K1 (Homo sapiens, UniProt Q02750) | 104 |
| PLK3 (Homo sapiens, UniProt Q9H4B4) | 95 |
| DDR2 (Homo sapiens, UniProt Q16832) | 98.1 |
| Cyclin-dependent kinase 1, with cyclin A (CDK1, Homo sapiens, UniProt P06493) | 93.7 |
| KDR (Homo sapiens, UniProt P35968) | 101 |
| CLK4 (Homo sapiens, UniProt Q9HAZ1) | 103 |
| PRKG2 (Homo sapiens, UniProt Q13237) | 102 |
| ROCK1 (Homo sapiens, UniProt Q13464) | 106 |
| DCLK2 (Homo sapiens, UniProt Q8N568) | 96.1 |
| AKT2 (Homo sapiens, UniProt P31751) | 101 |
| MAPK1 (Homo sapiens, UniProt P28482) | 69.9 |
| MARK2 (Homo sapiens, UniProt Q7KZI7) | 91.5 |
| CAMK4 (Homo sapiens, UniProt Q16566) | 99.6 |
| CLK3 (Homo sapiens, UniProt P49761) | 124 |

Excerpt of the above (set 2):
| Compound | remaining activity |
| --- | --- |
| Cn1cc(CNCC2CCN(c3ncc(C(=O)NO)cn3)CC2)c2ccccc21 | 97.9% |
| CC(C)(C=O)Cc1cc(C(C)(C)C)c(O)c(C(C)(C)C)c1 | 110% |
| CC(=O)OCC[N+](C)(C)C | 103% |
